Experimental data from different studies.
Each line is one published result; not all experiments were run side by side. ± marks the error that the study gave.

Under “subjects with adverse event”, CC(C)(C(=O)N1CCOc2c(C#N)cncc2C1)C(F)F is recorded as 12.5% (measured: Dermatitis; human; oral, 10 mg once daily, 14 days, multiple ascending dose).
The R/S ratio of COc1ccc2[nH]c([S+]([O-])Cc3ncc(C)c(OC)c3C)nc2c1 (stereo not drawn) is reported as 0.76 (human male; oral, dose not given, 2 h, after rifampicin).
Cc1cc(Nc2ccc(S(F)(F)(F)(F)F)cc2)n2nc(C(C)(F)F)nc2n1: “patients with QTcB increase” 11.1% (Plasmodium falciparum; 12-lead ECG; malaria patients; oral, 250 mg, increase above 30 ms).
[18F]c1ccc(-c2ccc3c(c2)[nH]c2ccncc23)cn1 gave an SUV of 3.73 ± 0.791 (ex vivo biodistribution; B6SJL mouse, normal, eyes; intravenous, 30 min).
For O=C1C[C@@H](c2ccc(O)cc2)Oc2cc(O[C@@H]3O[C@H](C(=O)O)[C@@H](O)[C@H](O)[C@H]3O)cc(O)c21, the plasma concentration was 617 nM (human plasma; median).
The cell viability of O=C(O)c1cc(O)c2c(c1)C(=O)c1cccc(O)c1C2=O is reported as 97 ± 14.8% (HepaRG co-cultured with HK-2; MTT; 16.67 µM, 24 h; reference: untreated control).
CN1C(=O)[C@@H](NC(=O)c2nnc(Cc3ccccc3)[nH]2)COc2cccnc21 has a Cmax of 1900 ng/mL (human, plasma; oral, 100 mg once daily, day 1, geometric mean).
The dose-normalised Cmax of C[C@@]1(c2cc(NC(=O)c3ccc(C#N)cn3)ccc2F)C=CSC(N)=N1 is reported as 6.72 ng/mL (young male humans, plasma; oral, 1 mg, single dose).
COc1c(O)c(C)cc2c1C(=O)c1c(O)cccc1C2=O gave a cell viability of 90.9 ± 14.5% (HepaRG co-cultured with HK-2; MTT; 16.67 µM, 24 h; reference: untreated control).
The apoptotic cells of CCCCCCCC(=O)c1cc(OC)c(OC)c(OC)c1CC(=O)OCC is reported as 0.96 ± 0.14 (COS-7; 10 µM, 24 h, 0.1% DMSO, unit not given; reference: vehicle control).
Under “peripheral volume V2”, Cn1cncc1-c1c(F)cncc1NC(=O)c1c(N)nn2cc(F)cnc12 is recorded as 0.0102 L/kg (two-compartment PK-TGI model; xenograft-bearing mice, plasma; dose not given).
For OC[C@H](Cc1cccc(O)c1)[C@H](CO)Cc1cccc(O)c1, the plasma concentration was 830 nM (human plasma; mean, both sexes).
The apoptotic cells of CCCCCCCCC(=O)c1cc(O)c(O)c(O)c1 is reported as 1.14 ± 0.03 (COS-7; 10 µM, 24 h, 0.1% DMSO, unit not given; reference: vehicle control).
The amount permeated of CO[C@@H]1[C@@H](OC(N)=O)[C@@H](O)[C@H](Oc2ccc3c(O)c(NC(=O)c4ccc(O)c(CC=C(C)C)c4)c(=O)oc3c2C)OC1(C)C is reported as 2.7 nmol (starch gel membrane permeability; Gram-negative envelope surrogate; 200 µM, 90 min, pH 7.4).
CO[C@@H]1[C@H](OC(=O)N2CC(CCN3CCOCC3)C2)CC[C@]2(CO2)[C@H]1[C@@]1(C)O[C@@H]1CC=C(C)C: “international normalized ratio” 0 ± 0.04 (humans; subcutaneous, 0.2 mg twice weekly for 4 weeks, day 28; reference: baseline).
N#Cc1ccc2c(c1)[C@H]1CCCN(C(=O)c3ccc4[nH]cnc4c3)[C@H]1C2 — result for “minimum ACTH level”: 1.9 pmol/L (human; 160 mg, day 15).
For CCc1cc(C(=O)NC)c2nccc(N3CCc4c(cc(Cn5ccnc5)cc4-c4cn(C)nc4C(F)(F)F)C3=O)c2c1, the cholesterol change was -7.7% (Sprague Dawley rats; oral, 100 mg/kg twice daily, 7 days; reference: vehicle).
The plasma concentration of O=C(O)c1ccc(O)cc1 is reported as 712 nM (human plasma; median, both sexes).
N=C(N)NCCNC(=O)C1(Nc2ccccc2)CCN(Cc2ccccc2)CC1 has a clearance of 10 mL/min (Sprague-Dawley rats (female), plasma; intravenous, 2.5 mg/kg).
Under “pre-dose plasma concentration”, N#Cc1ccc2c(c1)[C@H]1CCCN(C(=O)c3ccc4[nH]cnc4c3)[C@H]1C2 is recorded as 513 nmol/L (human, plasma; 20 mg once daily, day 21).
With C[C@@H]1COCCN1c1cc(C2([S@](C)(=N)=O)CC2)nc(-c2cc[nH]c3nccc2-3)n1 the Diarrhea incidence was 16.7% (Japanese advanced solid tumour patients; oral, 240 mg twice daily, any grade).
CN[C@H](CC(C)C)C(=O)N[C@H]1C(=O)N[C@@H](CC(N)=O)C(=O)N[C@H]2C(=O)N[C@H]3C(=O)N[C@H](C(=O)N[C@H](C(=O)O)c4cc(O)cc(O)c4-c4cc3ccc4O)[C@H](O)c3ccc(c(Cl)c3)Oc3cc2cc(c3O[C@@H]2O[C@H](CO)[C@@H](O)[C@H](O)[C@H]2O[C@H]2C[C@](C)(N)[C@H](O)[C@H](C)O2)Oc2ccc(cc2Cl)[C@H]1O gave an amount permeated of 0.76 nmol (starch gel membrane permeability; Gram-negative envelope surrogate; 200 µM, 45 min, pH 7.4).
For Nc1nc2c(nc([N+](=O)[O-])n2[C@@H]2O[C@H](CO)[C@@H](O)[C@H]2O)c(=O)[nH]1, “nucleoside remaining fraction” read 0.536 (depurination, RP-HPLC; citrate-phosphate buffer 0.5 mM; 1177 min, pH 7, 37 °C).
Under “systolic blood pressure”, COc1ccc2c(c1)CN(C(=O)CCN1CCC(Cc3ccccc3)CC1)CC[S@@+]2[O-] is recorded as 145 ± 30 mmHg (telemetry; conscious male beagle dogs; intravenous, 8 mg/kg, 0.5 h).

Repeated from above:
Under “subjects with adverse event”, CC(C)(C(=O)N1CCOc2c(C#N)cncc2C1)C(F)F is recorded as 12.5% (measured: Dermatitis; human; oral, 10 mg once daily, 14 days, multiple ascending dose).
N#Cc1ccc2c(c1)[C@H]1CCCN(C(=O)c3ccc4[nH]cnc4c3)[C@H]1C2 — result for “minimum ACTH level”: 1.9 pmol/L (human; 160 mg, day 15).
CN[C@H](CC(C)C)C(=O)N[C@H]1C(=O)N[C@@H](CC(N)=O)C(=O)N[C@H]2C(=O)N[C@H]3C(=O)N[C@H](C(=O)N[C@H](C(=O)O)c4cc(O)cc(O)c4-c4cc3ccc4O)[C@H](O)c3ccc(c(Cl)c3)Oc3cc2cc(c3O[C@@H]2O[C@H](CO)[C@@H](O)[C@H](O)[C@H]2O[C@H]2C[C@](C)(N)[C@H](O)[C@H](C)O2)Oc2ccc(cc2Cl)[C@H]1O gave an amount permeated of 0.76 nmol (starch gel membrane permeability; Gram-negative envelope surrogate; 200 µM, 45 min, pH 7.4).
The amount permeated of CO[C@@H]1[C@@H](OC(N)=O)[C@@H](O)[C@H](Oc2ccc3c(O)c(NC(=O)c4ccc(O)c(CC=C(C)C)c4)c(=O)oc3c2C)OC1(C)C is reported as 2.7 nmol (starch gel membrane permeability; Gram-negative envelope surrogate; 200 µM, 90 min, pH 7.4).
